Results pooled from the literature.
Parts stem from different laboratories: compare values within a part only. Positions count from the first letter of the parent shown.

Block 1 — target: CCNA2, cyclin fold, Cln2 fusion (human); method: yeast growth competition, sequencing; sample: yeast; notes: strong parent motif; relative to: not given; reading: higher = stronger binding; starting sequence: viral docking peptide; YKVKRRLVFGADD
Under “normalised enrichment score”, `R6M` is recorded as 6.16.
`A11Q` — result for “normalised enrichment score”: 5.99.
`K4C`: “normalised enrichment score” 5.61.
`A11S` — result for “normalised enrichment score”: 6.22.
`V3H`: “normalised enrichment score” 4.2.
For `R6S`, “normalised enrichment score” read 5.34.
For `V8F`, “normalised enrichment score” read 6.31.
Under “normalised enrichment score”, `K2W` is recorded as 5.67.
`V8G` — result for “normalised enrichment score”: 5.72.
`K4G` — result for “normalised enrichment score”: 5.29.
`K4S`: “normalised enrichment score” 5.8.
Under “normalised enrichment score”, `V3F` is recorded as 5.9.
Under “normalised enrichment score”, `D12L` is recorded as 6.02.
`F9I`: “normalised enrichment score” 1.49.
Under “normalised enrichment score”, `V3Q` is recorded as 1.97.
For `V3S`, “normalised enrichment score” read 6.29.
For `D12P`, “normalised enrichment score” read 6.13.
`D12E` — result for “normalised enrichment score”: 6.22.
`K4A`: “normalised enrichment score” 4.71.
For `D12G`, “normalised enrichment score” read 6.39.
For `K2Q`, “normalised enrichment score” read 5.97.
For `D12R`, “normalised enrichment score” read 5.8.

Block 2 — target: tungstate, free oxyanion; method: microfluidic competitive inhibition; sample: in vitro, cell-free expressed; tested at: not given; reading: lower = stronger binding
Notes: derived from inhibition constants, unchanged parent 2230 nM
Starting sequence: PafA, mature enzyme, eGFP fusion (Elizabethkingia meningoseptica, UniProt Q9KJX5); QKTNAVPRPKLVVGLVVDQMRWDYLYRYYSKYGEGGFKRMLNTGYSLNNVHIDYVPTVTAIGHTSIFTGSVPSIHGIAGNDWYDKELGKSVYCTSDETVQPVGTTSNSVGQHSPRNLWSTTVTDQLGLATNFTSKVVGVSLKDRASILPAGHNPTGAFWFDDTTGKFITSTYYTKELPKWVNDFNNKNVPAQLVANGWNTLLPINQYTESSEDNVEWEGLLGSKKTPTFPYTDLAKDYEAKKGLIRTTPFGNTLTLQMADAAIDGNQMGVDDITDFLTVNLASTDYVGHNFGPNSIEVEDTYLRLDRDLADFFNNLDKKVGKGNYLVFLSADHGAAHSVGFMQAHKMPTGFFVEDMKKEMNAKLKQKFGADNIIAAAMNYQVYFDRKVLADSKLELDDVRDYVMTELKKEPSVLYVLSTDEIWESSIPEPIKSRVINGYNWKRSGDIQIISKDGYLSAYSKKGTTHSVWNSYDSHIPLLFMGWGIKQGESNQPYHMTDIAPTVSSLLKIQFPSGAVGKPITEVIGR
`W423V`: “oxyanion analog dissociation constant” 2.16 µM.
`G35A` — result for “oxyanion analog dissociation constant”: 2.25 µM.
`K432G`: “oxyanion analog dissociation constant” 1.08 µM.
For `G292V`, “oxyanion analog dissociation constant” read 2.1 µM.
`P9G` — result for “oxyanion analog dissociation constant”: 1.26 µM.
`Y26G` — result for “oxyanion analog dissociation constant”: 1.51 µM.
For `D260G`, “oxyanion analog dissociation constant” read 2.18 µM.
For `K38V`, “oxyanion analog dissociation constant” read 2.51 µM.
Under “oxyanion analog dissociation constant”, `V137A` is recorded as 2.51 µM.
`P293G` — result for “oxyanion analog dissociation constant”: 2.17 µM.
For `V388G`, “oxyanion analog dissociation constant” read 2.32 µM.
`V435A`: “oxyanion analog dissociation constant” 1.91 µM.
Under “oxyanion analog dissociation constant”, `P493V` is recorded as 2.26 µM.
Under “oxyanion analog dissociation constant”, `G222V` is recorded as 2.53 µM.
`V435G`: “oxyanion analog dissociation constant” 1.22 µM.
`D272G` — result for “oxyanion analog dissociation constant”: 2.29 µM.
Under “oxyanion analog dissociation constant”, `F352V` is recorded as 2.23 µM.
For `K358V`, “oxyanion analog dissociation constant” read 2.52 µM.
Under “oxyanion analog dissociation constant”, `D143G` is recorded as 4.84 µM.
Under “oxyanion analog dissociation constant”, `D332G` is recorded as 18.3 µM.
`R304V` — result for “oxyanion analog dissociation constant”: 1.89 µM.
Under “oxyanion analog dissociation constant”, `L221G` is recorded as 0.623 µM.
Under “oxyanion analog dissociation constant”, `S460G` is recorded as 1.53 µM.
`V12G`: “oxyanion analog dissociation constant” 2.09 µM.

Block 3 — read-out: binding; method: phage display NGS; molecule type: peptide; tested at: concentration not given; relative to: input library
Target: UDP-N-acetylglucosamine--peptide N-acetylglucosaminyltransferase 110 kDa subunit (OGT, Homo sapiens, UniProt O15294)
Sequence of UniProt O15294 (whole entry, looked up): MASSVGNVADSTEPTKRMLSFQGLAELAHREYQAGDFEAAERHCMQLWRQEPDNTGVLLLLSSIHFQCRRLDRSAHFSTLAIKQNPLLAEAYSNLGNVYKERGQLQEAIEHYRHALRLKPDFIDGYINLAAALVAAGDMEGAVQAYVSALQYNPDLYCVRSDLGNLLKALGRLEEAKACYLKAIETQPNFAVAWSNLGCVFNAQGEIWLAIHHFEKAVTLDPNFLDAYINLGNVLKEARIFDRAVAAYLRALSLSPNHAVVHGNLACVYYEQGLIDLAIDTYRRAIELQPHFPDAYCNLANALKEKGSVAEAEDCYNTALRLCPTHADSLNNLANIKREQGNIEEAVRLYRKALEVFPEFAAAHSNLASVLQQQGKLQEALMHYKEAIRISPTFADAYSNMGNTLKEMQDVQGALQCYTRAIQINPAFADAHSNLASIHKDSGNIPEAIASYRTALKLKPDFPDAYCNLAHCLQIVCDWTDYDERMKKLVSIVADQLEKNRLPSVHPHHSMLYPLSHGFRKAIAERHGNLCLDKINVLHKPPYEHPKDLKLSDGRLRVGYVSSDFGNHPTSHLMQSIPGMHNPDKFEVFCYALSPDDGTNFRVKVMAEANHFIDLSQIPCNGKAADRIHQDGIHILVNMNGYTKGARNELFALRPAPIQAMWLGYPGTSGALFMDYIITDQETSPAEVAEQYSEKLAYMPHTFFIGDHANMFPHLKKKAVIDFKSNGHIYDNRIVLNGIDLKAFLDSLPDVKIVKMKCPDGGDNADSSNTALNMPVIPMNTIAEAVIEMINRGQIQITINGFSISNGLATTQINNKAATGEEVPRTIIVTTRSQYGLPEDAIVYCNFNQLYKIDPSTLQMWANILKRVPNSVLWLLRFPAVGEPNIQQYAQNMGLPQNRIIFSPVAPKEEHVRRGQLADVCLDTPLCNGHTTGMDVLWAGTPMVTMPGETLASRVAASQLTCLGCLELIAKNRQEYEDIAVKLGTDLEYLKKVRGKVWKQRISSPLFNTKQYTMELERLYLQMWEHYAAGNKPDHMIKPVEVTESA
Under “enrichment fold change”, `QQYFLPMYQIQFRNM` is recorded as 27.9.
Under “enrichment fold change”, `TYWHRDHTQTHIPSY` is recorded as 7.01.
For `RFFQPAYQIMPQSYR`, “enrichment fold change” read 1.7.
`FHSTMPVYQLKYVN`: “enrichment fold change” 3.1.
`WTPHPAHDNKPHYR` — result for “enrichment fold change”: 2.7.
`GHDSYMPFYQISLFR` — result for “enrichment fold change”: 8.37.
`WAGWRGTDALHSHWD` — result for “enrichment fold change”: 3.48.
For `HRVHTVETHYISHIV`, “enrichment fold change” read 2.43.
`QEHQYYRPKYLIEIY` — result for “enrichment fold change”: 2.47.
`HEYPATHYHQQRKHY` — result for “enrichment fold change”: 3.02.
Under “enrichment fold change”, `DSMLFTPLYQITVPH` is recorded as 42.5.
Under “enrichment fold change”, `VTNYHPSYHHLSHYA` is recorded as 4.05.
`NFMPFYPITITAIES` — result for “enrichment fold change”: 14.2.
`ASQYDFMPAYRIDVG` — result for “enrichment fold change”: 9.3.
`TLHQQFYPPMYFIKV` — result for “enrichment fold change”: 9.68.
Under “enrichment fold change”, `ENTLWSPRYQIKWAQ` is recorded as 3.78.
`WTGIHHPWSVPHGRP` — result for “enrichment fold change”: 7.39.
Under “enrichment fold change”, `HRDVNNHSLHQSPTH` is recorded as 4.93.
`HFVHRQDNGFMKHT` — result for “enrichment fold change”: 4.97.
`HQLDQRRGHVHGHME` — result for “enrichment fold change”: 4.96.
Under “enrichment fold change”, `HTFREHYINHWTHSI` is recorded as 10.1.
`QVFWPQYQINIPKLN` — result for “enrichment fold change”: 4.76.
For `KFTELPMYHDARHHQ`, “enrichment fold change” read 3.62.
For `NHTHMHRHPKDHQRE`, “enrichment fold change” read 4.99.

Other studies, line by line
Under cross-linked residues, `EVI5 (Homo sapiens, UniProt O60447)` is recorded as “M1 to K110” (Leucine-rich repeat transmembrane protein 3 (Homo sapiens, UniProt Q8NDH2); cross-linking MS; cells; together with: BSPNO).
